{"data": "Results pooled from the literature", "note": "“And” joins repeats or separate records; there may be more than shown. ± marks the error that the study gave."}
{"SMILES": "N=C(N)NCCC[C@@H]1NC(=O)[C@H](Cc2c[nH]c3ccccc23)NC(=O)[C@@H](CC2CCCCC2)NC(=O)[C@@H]2CCCN2C(=O)[C@@H](NC(=O)CCc2ccccc2)CCCNC1=O", "test system": "C57BL/6J mouse, plasma", "setting": "intravenous, 1 mg/kg", "endpoint": "clearance", "value": "147 µL/min"}
{"SMILES": "CC(C)(C)NCC(SS(=O)(=O)O)c1ccccc1 (centres unmarked)", "test system": "Swiss Webster CFW mouse, female, plasma", "setting": "intravenous, 15 mg/kg, from 0 h to last", "endpoint": "clearance", "value": "99.6 mL/min/kg"}
{"SMILES": "CN1/C(=C/C=C/c2cc(-c3ccccc3)cc(-c3ccccc3)[o+]2)C(C)(C)c2ccccc21", "test system": "CD1 mouse male, plasma", "setting": "intravenous, 1 mg/kg", "endpoint": "clearance", "value": "711 mL/min/kg"}
{"SMILES": "CC(C)C[C@H](NC(=O)[C@H](C)NC(=O)[C@H](C)NC(=O)[C@H](CCC(N)=O)NC(=O)[C@H](C)NC(=O)[C@H](CO)NC(=O)[C@H](CC(C)C)NC(=O)[C@H](C)NC(=O)[C@@H](NC(=O)[C@H](C)NC(=O)[C@H](Cc1ccc(O)cc1)NC(=O)[C@H](CO)NC(=O)[C@H](CCCCN)NC(=O)[C@H](C)NC(=O)[C@H](Cc1ccccc1)NC(=O)[C@H](CCCCN)NC(=O)[C@H](C)NC(=O)[C@H](Cc1ccccc1)NC(=O)[C@H](CCCCN)NC(=O)[C@H](CCCCN)NC(=O)[C@H](C)NC(=O)[C@H](Cc1ccccc1)NC(=O)[C@H](CCCCN)NC(=O)[C@H](C)NC(=O)[C@H](Cc1ccccc1)NC(=O)[C@H](CCCCN)NC(=O)[C@H](CCCCN)NC(=O)[C@H](C)NC(=O)[C@H](Cc1ccccc1)NC(=O)[C@H](CCCCN)NC(=O)[C@H](C)NC(=O)[C@H](Cc1ccccc1)NC(=O)[C@@H](N)CCCCN)C(C)C)C(=O)N[C@@H](C)C(=O)N[C@@H](CCCNC(=N)N)C(=O)N[C@@H](CCCNC(=N)N)C(=O)O", "test system": "C57BL/6 mouse, male", "setting": "intravenous, 0.8 mg/kg", "endpoint": "clearance", "value": "5.22 ± 0.683 mL/min/kg"}
{"SMILES": "CCCCCCC[C@@H](O)CC(=O)N[C@H](CCN)C(=O)N[C@H]1CCNC(=O)[C@H](CC(C)C)NC(=O)[C@H](CCN)NC(=O)[C@H](CCN)NC(=O)[C@H](CC(C)C)NC(=O)[C@@H](Cc2ccccc2)NC(=O)[C@H](CCN)NC1=O", "test system": "mouse", "setting": "intravenous, 10 mg/kg", "endpoint": "clearance", "value": "4.1 mL/min/kg"}
{"SMILES": "Cc1ccc(CNC(=O)Cc2ccc(-c3ccc(OCCN4CCOCC4)cc3)cn2)cc1", "test system": "ICR mouse", "setting": "intravenous, 2 mg/kg", "endpoint": "clearance", "value": "43 ± 2.5 mL/min/kg"}
{"SMILES": "C#CCN(CCCNC(=O)CCCCC[N+]1=C(/C=C/C2=C(Cl)C(=C/C=C3\\N(CCCCCC(=O)[O-])c4ccccc4C3(C)C)/CCC2)C(C)(C)c2ccccc21)CCCOc1ccc(Cl)cc1Cl", "test system": "C57BL mouse, plasma", "setting": "intravenous, 5 mg/kg", "endpoint": "clearance", "value": "0.129 mL/min/kg"}
{"SMILES": "CN(O)C(=O)CCC(=O)NCCCN(CCCCN(CCCNC(=O)CCC(=O)N(C)O)C(=O)CCC(=O)N(C)O)C(=O)CCC(=O)N(C)O.[89Zr]", "test system": "BALB/c mouse, healthy", "setting": "most tissues", "endpoint": "clearance time", "value": "≤ 24 h"}
{"SMILES": "CCc1nc(N)nc(N)c1C#C[C@H](C)c1cc(-c2cc(C)nc(C)c2)ccc1Cl", "test system": "mouse, plasma", "setting": "intraperitoneal, 5 mg/kg", "endpoint": "clearance", "value": "5.96 mL/min/kg and 6 mL/min/kg"}
{"SMILES": "CCS(=O)(=O)c1ccccc1C(=O)N1CCN(c2nc3ccc(F)cc3s2)C[C@@H]1C", "test system": "mouse", "setting": "oral, 3 mg/kg", "endpoint": "clearance", "value": "49 ± 8 mL/min/kg"}
{"SMILES": "COc1ccc(-c2ccn(CC[C@](C)(C(=O)NO)S(C)(=O)=O)c(=O)c2)c(F)c1", "test system": "CF-1 mouse, female", "setting": "subcutaneous, 75 mg/kg", "endpoint": "clearance", "value": "72 ± 11.2 mL/min/kg"}
{"note": "Some of these lines once more:"}
{"SMILES": "C#CCN(CCCNC(=O)CCCCC[N+]1=C(/C=C/C2=C(Cl)C(=C/C=C3\\N(CCCCCC(=O)[O-])c4ccccc4C3(C)C)/CCC2)C(C)(C)c2ccccc21)CCCOc1ccc(Cl)cc1Cl", "test system": "C57BL mouse, plasma", "setting": "intravenous, 5 mg/kg", "endpoint": "clearance", "value": "0.129 mL/min/kg"}
